Assay results gathered from unrelated publications.
Each line is one published result; not all experiments were run side by side. ± marks the error that the study gave.
NR3C1: Glucocorticoid receptor (NR3C1, Homo sapiens, UniProt P04150)
F2: Prothrombin (F2, Bos taurus, UniProt P00735)
PTPN5: Tyrosine-protein phosphatase non-receptor type 5 (PTPN5, Homo sapiens, UniProt P54829)
PTPN7: Tyrosine-protein phosphatase non-receptor type 7 (PTPN7, Homo sapiens, UniProt P35236)

Sequences of proteins named here, by UniProt entry; tags and fusion partners are left off. Residues count along the entry.
UniProt P35236, whole entry: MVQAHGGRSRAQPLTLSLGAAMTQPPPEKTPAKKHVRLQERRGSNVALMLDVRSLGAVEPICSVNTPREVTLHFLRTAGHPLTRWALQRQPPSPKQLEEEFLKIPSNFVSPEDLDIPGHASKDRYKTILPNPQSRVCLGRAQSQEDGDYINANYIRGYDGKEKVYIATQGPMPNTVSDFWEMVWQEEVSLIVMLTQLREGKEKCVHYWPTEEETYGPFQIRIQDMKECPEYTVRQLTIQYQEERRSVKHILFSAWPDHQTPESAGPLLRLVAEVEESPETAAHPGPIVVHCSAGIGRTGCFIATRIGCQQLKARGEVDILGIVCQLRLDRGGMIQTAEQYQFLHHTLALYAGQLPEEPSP
UniProt Q9NVS9, whole entry: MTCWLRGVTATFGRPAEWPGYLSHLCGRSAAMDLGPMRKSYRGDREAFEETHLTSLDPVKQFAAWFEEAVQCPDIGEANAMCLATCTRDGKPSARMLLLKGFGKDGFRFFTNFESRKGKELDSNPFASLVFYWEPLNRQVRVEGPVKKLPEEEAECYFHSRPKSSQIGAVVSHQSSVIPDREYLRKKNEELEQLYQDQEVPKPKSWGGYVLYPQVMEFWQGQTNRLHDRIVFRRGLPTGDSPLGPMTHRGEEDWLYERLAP
UniProt O14684, whole entry: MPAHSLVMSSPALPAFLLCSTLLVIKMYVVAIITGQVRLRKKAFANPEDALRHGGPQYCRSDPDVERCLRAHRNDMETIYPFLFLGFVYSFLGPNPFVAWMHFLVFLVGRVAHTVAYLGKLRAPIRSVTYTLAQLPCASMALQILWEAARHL
UniProt P37023, 22-503 limits assumed: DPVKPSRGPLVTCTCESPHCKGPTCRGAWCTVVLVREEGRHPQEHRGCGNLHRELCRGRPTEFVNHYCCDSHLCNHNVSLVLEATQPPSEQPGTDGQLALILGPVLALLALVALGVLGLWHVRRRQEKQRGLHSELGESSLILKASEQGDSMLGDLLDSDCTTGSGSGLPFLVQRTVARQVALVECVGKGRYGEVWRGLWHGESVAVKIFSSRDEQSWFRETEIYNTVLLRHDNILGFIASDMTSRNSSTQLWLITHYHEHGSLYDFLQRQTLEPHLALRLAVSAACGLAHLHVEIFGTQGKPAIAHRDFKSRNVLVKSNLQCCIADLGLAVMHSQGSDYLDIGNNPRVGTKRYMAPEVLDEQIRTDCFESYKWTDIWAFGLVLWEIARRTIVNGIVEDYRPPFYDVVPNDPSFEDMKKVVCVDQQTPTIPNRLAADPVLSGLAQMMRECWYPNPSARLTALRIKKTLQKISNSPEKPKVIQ
UniProt Q15059, whole entry, looked up: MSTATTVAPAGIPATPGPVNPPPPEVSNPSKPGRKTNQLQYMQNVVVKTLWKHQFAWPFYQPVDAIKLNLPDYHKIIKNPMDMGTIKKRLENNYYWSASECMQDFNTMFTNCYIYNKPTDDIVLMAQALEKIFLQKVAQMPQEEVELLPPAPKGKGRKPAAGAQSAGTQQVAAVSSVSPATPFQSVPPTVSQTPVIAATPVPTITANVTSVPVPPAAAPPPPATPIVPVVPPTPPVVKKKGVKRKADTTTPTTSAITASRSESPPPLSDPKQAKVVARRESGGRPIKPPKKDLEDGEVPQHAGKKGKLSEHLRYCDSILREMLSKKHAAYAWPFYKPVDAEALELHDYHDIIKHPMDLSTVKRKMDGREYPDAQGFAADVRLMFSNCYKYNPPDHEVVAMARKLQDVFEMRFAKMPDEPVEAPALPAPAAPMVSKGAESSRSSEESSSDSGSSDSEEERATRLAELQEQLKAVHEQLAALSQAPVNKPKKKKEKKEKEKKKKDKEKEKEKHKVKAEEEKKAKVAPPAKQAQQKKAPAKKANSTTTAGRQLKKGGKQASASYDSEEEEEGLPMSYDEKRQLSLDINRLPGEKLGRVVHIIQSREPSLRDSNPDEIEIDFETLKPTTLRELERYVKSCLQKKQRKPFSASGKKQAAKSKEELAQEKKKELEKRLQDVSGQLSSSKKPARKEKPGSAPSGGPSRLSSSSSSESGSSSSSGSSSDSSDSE
UniProt P10636, whole entry, looked up: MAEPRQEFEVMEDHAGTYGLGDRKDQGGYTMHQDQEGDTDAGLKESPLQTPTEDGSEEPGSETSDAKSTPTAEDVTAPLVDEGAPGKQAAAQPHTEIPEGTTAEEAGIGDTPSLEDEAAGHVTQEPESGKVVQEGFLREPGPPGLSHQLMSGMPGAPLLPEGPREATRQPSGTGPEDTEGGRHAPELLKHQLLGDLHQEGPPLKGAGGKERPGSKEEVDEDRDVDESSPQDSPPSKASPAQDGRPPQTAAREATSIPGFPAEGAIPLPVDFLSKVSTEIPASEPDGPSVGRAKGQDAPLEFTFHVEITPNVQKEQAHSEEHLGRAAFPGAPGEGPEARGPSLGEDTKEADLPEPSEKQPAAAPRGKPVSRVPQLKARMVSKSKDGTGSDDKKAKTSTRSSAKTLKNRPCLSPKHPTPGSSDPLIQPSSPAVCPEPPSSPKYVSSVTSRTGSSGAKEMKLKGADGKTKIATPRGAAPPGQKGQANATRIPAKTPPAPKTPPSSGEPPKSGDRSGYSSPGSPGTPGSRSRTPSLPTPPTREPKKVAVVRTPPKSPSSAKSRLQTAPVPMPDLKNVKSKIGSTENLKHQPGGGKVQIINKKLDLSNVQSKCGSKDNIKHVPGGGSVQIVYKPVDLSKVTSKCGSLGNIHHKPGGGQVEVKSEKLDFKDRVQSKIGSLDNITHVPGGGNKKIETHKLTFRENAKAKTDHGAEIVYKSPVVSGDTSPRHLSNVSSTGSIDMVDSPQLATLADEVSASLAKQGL
UniProt O75116, whole entry: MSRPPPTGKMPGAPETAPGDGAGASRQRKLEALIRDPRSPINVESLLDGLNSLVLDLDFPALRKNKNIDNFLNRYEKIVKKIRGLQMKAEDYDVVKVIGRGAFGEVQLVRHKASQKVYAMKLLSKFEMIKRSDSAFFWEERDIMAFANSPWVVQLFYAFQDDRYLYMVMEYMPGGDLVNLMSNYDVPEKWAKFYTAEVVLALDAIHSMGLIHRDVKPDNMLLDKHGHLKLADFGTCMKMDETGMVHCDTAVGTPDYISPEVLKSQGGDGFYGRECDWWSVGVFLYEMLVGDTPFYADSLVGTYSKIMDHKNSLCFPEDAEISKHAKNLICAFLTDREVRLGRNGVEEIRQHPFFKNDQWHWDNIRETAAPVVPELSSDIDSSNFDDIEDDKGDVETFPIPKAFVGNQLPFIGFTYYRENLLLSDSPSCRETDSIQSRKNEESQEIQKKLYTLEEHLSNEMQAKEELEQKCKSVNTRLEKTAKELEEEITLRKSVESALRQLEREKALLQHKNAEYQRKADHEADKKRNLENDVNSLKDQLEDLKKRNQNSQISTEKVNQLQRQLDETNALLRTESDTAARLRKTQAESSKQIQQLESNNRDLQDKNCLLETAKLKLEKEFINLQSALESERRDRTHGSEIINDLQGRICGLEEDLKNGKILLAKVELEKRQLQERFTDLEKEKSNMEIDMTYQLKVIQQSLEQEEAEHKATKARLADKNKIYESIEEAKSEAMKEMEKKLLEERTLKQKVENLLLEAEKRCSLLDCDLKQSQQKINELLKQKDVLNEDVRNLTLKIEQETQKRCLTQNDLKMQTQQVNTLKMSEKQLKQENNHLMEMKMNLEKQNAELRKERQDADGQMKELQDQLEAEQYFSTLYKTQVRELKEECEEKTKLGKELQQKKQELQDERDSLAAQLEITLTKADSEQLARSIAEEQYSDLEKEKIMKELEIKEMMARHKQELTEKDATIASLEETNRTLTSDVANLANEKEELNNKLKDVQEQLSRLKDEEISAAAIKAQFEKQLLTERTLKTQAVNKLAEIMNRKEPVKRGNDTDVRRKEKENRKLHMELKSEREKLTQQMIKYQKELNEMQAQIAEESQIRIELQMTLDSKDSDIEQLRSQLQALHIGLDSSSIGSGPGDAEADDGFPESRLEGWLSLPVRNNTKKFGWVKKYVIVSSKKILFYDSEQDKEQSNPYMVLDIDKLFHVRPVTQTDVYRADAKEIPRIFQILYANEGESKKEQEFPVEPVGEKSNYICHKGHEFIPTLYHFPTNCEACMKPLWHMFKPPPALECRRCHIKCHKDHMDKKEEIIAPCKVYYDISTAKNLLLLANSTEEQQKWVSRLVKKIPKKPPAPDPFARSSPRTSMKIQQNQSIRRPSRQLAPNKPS
UniProt Q8K3Y3, whole entry, looked up: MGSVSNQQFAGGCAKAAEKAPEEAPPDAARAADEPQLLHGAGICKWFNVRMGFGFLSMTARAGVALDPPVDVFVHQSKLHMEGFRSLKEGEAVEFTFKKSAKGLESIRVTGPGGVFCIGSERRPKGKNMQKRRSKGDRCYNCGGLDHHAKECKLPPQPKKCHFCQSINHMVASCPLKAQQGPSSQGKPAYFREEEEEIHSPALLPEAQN
UniProt Q96RU2, whole entry, looked up: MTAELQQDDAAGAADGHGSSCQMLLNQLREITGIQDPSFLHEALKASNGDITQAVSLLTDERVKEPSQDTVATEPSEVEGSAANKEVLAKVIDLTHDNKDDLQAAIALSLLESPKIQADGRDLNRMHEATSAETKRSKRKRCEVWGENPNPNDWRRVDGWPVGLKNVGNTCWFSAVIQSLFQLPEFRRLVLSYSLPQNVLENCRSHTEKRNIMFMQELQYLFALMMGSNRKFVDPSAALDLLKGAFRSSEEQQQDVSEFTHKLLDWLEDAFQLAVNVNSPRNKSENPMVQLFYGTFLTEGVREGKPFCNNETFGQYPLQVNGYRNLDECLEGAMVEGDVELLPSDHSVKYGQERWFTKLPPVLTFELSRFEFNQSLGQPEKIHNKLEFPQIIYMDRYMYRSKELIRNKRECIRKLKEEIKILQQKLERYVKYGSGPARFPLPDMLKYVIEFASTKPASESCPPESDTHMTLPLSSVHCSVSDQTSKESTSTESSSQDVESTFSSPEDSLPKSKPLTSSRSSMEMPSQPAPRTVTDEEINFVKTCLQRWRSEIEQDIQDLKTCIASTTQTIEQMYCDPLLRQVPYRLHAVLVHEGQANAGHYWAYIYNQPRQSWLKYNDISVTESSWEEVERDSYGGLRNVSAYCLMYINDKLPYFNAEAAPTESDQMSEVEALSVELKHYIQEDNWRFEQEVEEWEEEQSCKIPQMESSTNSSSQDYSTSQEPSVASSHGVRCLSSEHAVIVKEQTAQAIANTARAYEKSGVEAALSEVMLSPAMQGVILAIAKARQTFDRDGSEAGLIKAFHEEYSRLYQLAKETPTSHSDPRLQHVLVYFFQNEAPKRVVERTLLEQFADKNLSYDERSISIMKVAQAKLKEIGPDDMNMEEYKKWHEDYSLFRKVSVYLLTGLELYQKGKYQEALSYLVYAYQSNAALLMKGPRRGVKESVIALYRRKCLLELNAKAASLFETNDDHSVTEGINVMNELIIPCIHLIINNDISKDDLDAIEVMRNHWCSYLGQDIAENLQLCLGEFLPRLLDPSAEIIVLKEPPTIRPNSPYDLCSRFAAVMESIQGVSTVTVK
UniProt Q8N568, whole entry: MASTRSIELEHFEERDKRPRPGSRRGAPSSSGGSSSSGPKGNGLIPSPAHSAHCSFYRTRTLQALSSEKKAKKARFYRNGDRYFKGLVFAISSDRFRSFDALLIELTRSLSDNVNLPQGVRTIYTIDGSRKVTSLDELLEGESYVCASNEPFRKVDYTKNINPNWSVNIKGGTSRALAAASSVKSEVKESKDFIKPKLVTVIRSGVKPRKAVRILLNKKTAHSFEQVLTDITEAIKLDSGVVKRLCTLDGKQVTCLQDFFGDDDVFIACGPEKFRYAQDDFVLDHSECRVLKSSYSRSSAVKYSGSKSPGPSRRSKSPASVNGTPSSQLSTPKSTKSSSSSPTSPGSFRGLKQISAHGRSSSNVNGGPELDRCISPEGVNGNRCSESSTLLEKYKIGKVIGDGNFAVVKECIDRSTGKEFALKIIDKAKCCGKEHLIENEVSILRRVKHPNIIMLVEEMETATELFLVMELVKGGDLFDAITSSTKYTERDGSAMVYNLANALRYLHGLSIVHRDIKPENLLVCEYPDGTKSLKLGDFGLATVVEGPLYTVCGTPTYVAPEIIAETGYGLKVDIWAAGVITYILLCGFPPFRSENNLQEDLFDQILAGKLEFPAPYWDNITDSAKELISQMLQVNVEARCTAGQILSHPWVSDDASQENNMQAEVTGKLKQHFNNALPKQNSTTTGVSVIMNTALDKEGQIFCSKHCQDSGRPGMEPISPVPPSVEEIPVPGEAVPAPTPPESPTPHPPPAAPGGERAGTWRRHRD
UniProt Q02750, whole entry: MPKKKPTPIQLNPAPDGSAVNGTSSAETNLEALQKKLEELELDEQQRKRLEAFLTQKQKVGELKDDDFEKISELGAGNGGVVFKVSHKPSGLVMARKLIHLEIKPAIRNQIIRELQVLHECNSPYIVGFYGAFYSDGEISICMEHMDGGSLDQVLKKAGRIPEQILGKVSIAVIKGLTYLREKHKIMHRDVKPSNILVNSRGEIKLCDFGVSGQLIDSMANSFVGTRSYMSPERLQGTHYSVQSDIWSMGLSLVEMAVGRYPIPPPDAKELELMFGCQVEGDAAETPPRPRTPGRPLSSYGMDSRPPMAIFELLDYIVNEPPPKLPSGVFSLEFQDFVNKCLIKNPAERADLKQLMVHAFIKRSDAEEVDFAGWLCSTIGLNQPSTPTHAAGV

CC(=O)[C@]1(O)CC[C@@H]2[C@H]3C[C@@H](C)C4=CC(=O)CC[C@@]4(C)[C@H]3[C@@H](O)C[C@]21C  EC50 (NR3C1; nuclear translocation, agonist, enzyme fragment complementation): 23.6 nM
Cc1ccc(OCc2nnc(NC(=O)Nc3cccc(Cl)c3)s2)cc1C  IC50 (F2; enzyme activity; 30 min preincubation, added: pyroGlu-Pro-Arg-pNA): > 20000 nM
COc1cc2ncc(-c3cccc(NC4CCNC4)n3)n2cc1-c1cn[nH]c1 (centres unmarked)  IC50 (Receptor-type tyrosine-protein kinase FLT3 (FLT3, Homo sapiens, UniProt P36888); kinase activity, inhibitor): < 0.5 nM
O=c1/c(=C/c2ccc(-c3cc(Cl)cc(Cl)c3)o2)sc2nc3cc(Br)cnc3n12  IC50 (PTPN5; phosphatase activity, inhibitor; added: OMFP): > 100000 nM
O=C1C=C(NCCc2cc(Br)c(O)c(Br)c2)C(=O)c2ncccc21  IC50 (Ezrin (Ezr, Mus musculus, UniProt P26040); ezrin phosphorylation, inhibitor; 30 min, 30 °C, added: PKCι): 8100 nM
O=c1/c(=C/c2ccccc2Cl)sc2nc3cc(Br)cnc3n12  IC50 (PTPN7; phosphatase activity, inhibitor; added: OMFP): 35000 nM
CC(C)NC(=O)Nc1ccc2c(c1)C(=O)N([C@H](C)CO)C[C@@H](C)[C@H](CN(C)S(=O)(=O)c1ccc(Cl)cc1)O2  IC50 (Scavenger receptor class B member 1 (Mus musculus, UniProt Q61009); DiI-HDL uptake, inhibitor; ldlA[mSR-BI] cells; resynthesized or repurified compound): 100 ± 20 nM
O=c1/c(=C/c2ccc(-c3ccccc3[N+](=O)[O-])o2)sc2nc3cc(Br)cnc3n12  IC50 (PTPN5; phosphatase activity, inhibitor; added: OMFP): > 100000 nM
C=CC(=O)Nc1cc(-c2nn(C3CCC(N4CCN(C(C)=O)CC4)CC3)c3ncnc(N)c23)ccc1Oc1ccccc1 (centres unmarked)  IC50 (Receptor tyrosine-protein kinase erbB-3 (ERBB3, Homo sapiens, UniProt P21860); ATP-site binding, LanthaScreen TR-FRET; 3 h): 23 nM
O=C(O)c1ccc(/C=C2\SC(=S)N(c3cccc(C(F)(F)F)c3)C2=O)cc1  IC50 (Cystic fibrosis transmembrane conductance regulator (CFTR, Homo sapiens, UniProt P13569); iodide influx, inhibitor, YFP fluorescence plate reader; FRT cells expressing CFTR; added: forskolin): 1000 ± 200 nM
O=C(CCc1cn(-c2ccccc2)nc1-c1ccccc1)Oc1c(F)c(F)c(F)c(F)c1F  IC50 (Pyridoxine-5'-phosphate oxidase (PNPO, Homo sapiens, UniProt Q9NVS9); enzyme activity, inhibitor): ~5000 nM
c1ccc2[nH]c3c(N=NC4=NCCN4)c4ccccc4c-3nc2c1  IC50 (Ribosyldihydronicotinamide dehydrogenase [quinone] (NQO2, Homo sapiens, UniProt P16083); enzyme activity, inhibitor; no BSA, added: 200 µM NRH, DCPIP): 760 ± 120 nM
COc1cccc(CNC(=O)Nc2ccc(-c3ncnc4[nH]ccc34)cc2)c1  IC50 (LIM domain kinase 1 (LIMK1, Homo sapiens, UniProt P53667); enzyme activity, inhibitor; added: 1 µM cofilin, 10 µM ATP): 642 nM
CCN1CCN(Cc2ccc(NC(=O)c3ccc(C)c(Oc4ncnc5cc(OC)c(OC)cc45)c3)cc2C(F)(F)F)CC1  IC50 (Tyrosine-protein kinase Fes/Fps (FES, Homo sapiens, UniProt P07332); enzyme activity, Z'-LYTE; added: ATP at Km): 290 nM
CC(C)(O)Cc1ccc2c(c1)c1cc(OCCC3CC3)ccc1c1nc(-c3c(C#N)cc(F)cc3C#N)[nH]c21  IC50 (Prostaglandin E synthase (PTGES, Homo sapiens, UniProt O14684); PGE2 production, inhibitor, LC-MS/MS; KB; added: IL-1β): 63 nM
COc1cc(-c2nc3ccc(C(=O)NCCCN4CCN(C)C(c5ccccc5)C4)cc3n2C2CCC2)cc(OC)c1OC (centres unmarked)  IC50 (Activin receptor type-1-like (ACVRL1, Homo sapiens, UniProt P37023); target engagement, NanoBRET; HEK293): > 30000 nM
CN(C)S(=O)(=O)c1cccc(-n2sc3ccccc3c2=O)c1  IC50 (Phosphoethanolamine/phosphocholine phosphatase (Homo sapiens, UniProt Q8TCT1); enzyme activity, inhibitor, phosphate release; 60 min, pH 6.7, added: phosphocholine 62.5 µM): 240 ± 60 nM
Cc1sc2c(c1C)C(c1ccc(Cl)cc1)=N[C@@H](CC(=O)OC(C)(C)C)c1nnc(C)n1-2  IC50 (Mitogen-activated protein kinase 7 (MAPK7, Homo sapiens, UniProt Q13164); kinase activity): > 10000 nM
CCCCCC/C=C\CC(=O)N[C@@H](Cc1ccc(O)cc1)[C@@H](O)CC(=O)N[C@H](C(=O)N[C@@H]1C=CC(=O)N[C@@H](C(C)C)C(=O)N(C)[C@@H](Cc2ccc(O)cc2)C(=O)OC1)C(C)C  IC50 (Calpain-1 catalytic subunit (CAPN1, Homo sapiens, UniProt P07384); enzyme activity, inhibitor, fluorescence; 1 h, 37 °C): 34.7 ± 2.5 nM
O=C(/C=C/c1nc2ccccc2[nH]1)c1c(-c2ccccc2)c2cc(Cl)ccc2[nH]c1=O  IC50 (Aurora kinase B (AURKB, Homo sapiens, UniProt Q96GD4); kinase activity, inhibitor, SelectScreen profiling): 1730 nM
CC1(C)CC(=O)c2c(oc3c(Br)cc(NS(=O)(=O)c4ccccc4)cc23)C1  IC50 (F2; enzyme activity; 30 min preincubation, added: pyroGlu-Pro-Arg-pNA): > 20000 nM
CC[C@@H]1C(=O)N(C)c2cnc(Nc3ccc(C(=O)NC4CCN(C)CC4)cc3OC)nc2N1C1CCCC1  delta Tm (Bromodomain-containing protein 3, BD2 (BRD3, Homo sapiens, UniProt Q15059); 10 µM): 5 ± 0.3 °C
Cc1ccn(-c2cccc(C(=O)OCC(=O)c3cc(C)n(-c4ccc(S(N)(=O)=O)cc4)c3C)c2)n1  IC50 (Carbonic anhydrase 9 (CA9, Homo sapiens, UniProt Q16790); enzyme activity, inhibitor): 151 nM
Fc1cc(-c2ccc3c(n2)[nH]c2ccncc23)ccn1 [isotope labelled]  specific binding (Microtubule-associated protein tau, paired helical filaments (MAPT, Homo sapiens, UniProt P10636); radioligand binding; PHF tau brain homogenate; 37.19 nM; higher = more binding): 15.5 a.u.
COc1cccc(CNC(=O)Nc2ccc(-c3cn[nH]c3)cc2)c1  IC50 (Rho-associated protein kinase 2 (ROCK2, Homo sapiens, UniProt O75116); enzyme activity, inhibitor): 2 nM
O=c1cc(O)n(Cc2ccco2)c(=S)[nH]1  IC50 (Protein lin-28 homolog A, with pre-let-7d (Mus musculus, UniProt Q8K3Y3); HTS dose-response): < 1000 nM
CCCc1nc2sc3c(NCCc4ccc(OC)c(OC)c4)ncnc3c2c2c1CCC2  IC50 (Ubiquitin carboxyl-terminal hydrolase 28 (USP28, Homo sapiens, UniProt Q96RU2); added: ubiquitin-rhodamine): 120 nM
O=[N+]([O-])c1cccc(C2Nc3ccc(Cl)cc3C3C=CCC32)c1 (centres unmarked)  IC50 (F2; enzyme activity; 30 min preincubation, added: pyroGlu-Pro-Arg-pNA): > 20000 nM
Cc1cc(C)c2nc3s/c(=C\c4ccc(-c5ccccc5C(=O)O)o4)c(=O)n3c2c1  IC50 (PTPN7; phosphatase activity, inhibitor; added: OMFP): 1800 nM
O=C1CCC(N2C(=O)c3cccc(NCCOCCOCCOCCN4CCN(c5ccc(-c6ccc7c(c6)C(=O)N(C(C(=O)Nc6nccs6)c6ccccc6)C7)cn5)CC4)c3C2=O)C(=O)N1 (centres unmarked)  IC50 (Epidermal growth factor receptor (EGFR, Homo sapiens, UniProt P00533, L858R/T790M); enzyme activity, HTRF): 45 nM
COc1cc(N2CCN(C)CC2)ccc1Nc1ncc2c(n1)N(C)c1ccccc1C(=O)N2  IC50 (Tyrosine-protein kinase FRK (FRK, Homo sapiens, UniProt P42685); kinase activity, inhibitor; off-target): 264 nM
O=C(Nc1cccnn1)N1CC(Oc2ccc(-c3ccccc3F)cn2)C1  IC50 (Fatty-acid amide hydrolase 1 (FAAH, Homo sapiens, UniProt O00519); enzyme activity, inhibitor): ~60 nM
CC(=O)O[C@H]1CC[C@H]2[C@@H]3CCC4=C[C@@H](C5SCCS5)[C@H](OC(C)=O)C[C@]4(C)[C@H]3CC[C@@]12C  EC50 (NR3C1; nuclear translocation, agonist, enzyme fragment complementation): > 9000 nM
CN1C(=O)c2ccccc2N(C)c2nc(Nc3ccc(N4CCC(O)CC4)cc3)ncc21  IC50 (Serine/threonine-protein kinase DCLK2 (DCLK2, Homo sapiens, UniProt Q8N568); kinase activity): < 100 nM
COc1cc(N2CCN(C)CC2)ccc1Nc1ncc2c(n1)N(C)c1ccccc1C(=O)N2C(C)C  IC50 (Bromodomain-containing protein 4, BD1 (BRD4, Homo sapiens, UniProt O60885); inhibitor): 2190 nM
Cc1csc(-c2cc3ccc(OCc4c(F)c(F)c(F)c(F)c4F)cc3oc2=O)n1  IC50 (F2; enzyme activity; 30 min preincubation, added: pyroGlu-Pro-Arg-pNA): > 20000 nM
CC(C)C[C@@H](NC(=O)[C@H](O)Cc1ccccc1)C(=O)N1[C@H](C(=O)NCCC2=CCN(C(=N)N)C2)C[C@@H]2CC[C@@H](O[C@H]3OC[C@@H](O)[C@H](O)[C@H]3O)C[C@@H]21  IC50 (F2; enzyme activity, inhibitor): 30 µg/mL
CN1C/C(=C\c2ccccn2)C(=O)[C@@H](Cc2ccccn2)C1  IC50 (Dual specificity mitogen-activated protein kinase kinase 1 (MAP2K1, Homo sapiens, UniProt Q02750); kinase cascade activity, inhibitor, Z'-LYTE; added: ERK2): > 100000 nM
CCCCCCCCCCCCCC=C[C@@H](O)[C@H](CO[C@@H]1O[C@H](CO)[C@@H](O[C@@H]2O[C@H](CO)[C@H](O)[C@H](O[C@]3(C(=O)O)C[C@H](O)[C@@H](NC(C)=O)[C@H]([C@H](O)[C@@H](CO)O[C@]4(C(=O)O)C[C@H](O)[C@@H](NC(C)=O)[C@H]([C@H](O)[C@H](O)CO)O4)O3)[C@H]2O)[C@H](O)[C@H]1O)NC(=O)CCCCCCCCCCCCCCCCC  IC50 (CD1D (Homo sapiens, UniProt P15813); binding): 84 nM
O=c1oc(-c2cccc(F)c2)nc2ccc(Cc3ccc4nc(-c5cccc(F)c5)oc(=O)c4c3)cc12  IC50 (F2; enzyme activity; 30 min preincubation, added: pyroGlu-Pro-Arg-pNA): > 20000 nM
COc1cc(CC(=O)NCC(NC(=O)C(CCCNC(=O)c2cccc(I)c2)NC(=O)C(Cc2ccc(C(F)(F)P(=O)(O)O)cc2)NC(=O)c2ccc(C)c(Br)c2)C(N)=O)ccc1O (centres unmarked)  inhibition (Tyrosine-protein phosphatase non-receptor type 12 (PTPN12, Homo sapiens, UniProt Q05209); enzyme activity; 10 µM): no inhibition

Repeated from above:
CCCc1nc2sc3c(NCCc4ccc(OC)c(OC)c4)ncnc3c2c2c1CCC2  IC50 (Ubiquitin carboxyl-terminal hydrolase 28 (USP28, Homo sapiens, UniProt Q96RU2); added: ubiquitin-rhodamine): 120 nM
O=[N+]([O-])c1cccc(C2Nc3ccc(Cl)cc3C3C=CCC32)c1 (centres unmarked)  IC50 (F2; enzyme activity; 30 min preincubation, added: pyroGlu-Pro-Arg-pNA): > 20000 nM
Cc1cc(C)c2nc3s/c(=C\c4ccc(-c5ccccc5C(=O)O)o4)c(=O)n3c2c1  IC50 (PTPN7; phosphatase activity, inhibitor; added: OMFP): 1800 nM
O=C1CCC(N2C(=O)c3cccc(NCCOCCOCCOCCN4CCN(c5ccc(-c6ccc7c(c6)C(=O)N(C(C(=O)Nc6nccs6)c6ccccc6)C7)cn5)CC4)c3C2=O)C(=O)N1 (centres unmarked)  IC50 (Epidermal growth factor receptor (EGFR, Homo sapiens, UniProt P00533, L858R/T790M); enzyme activity, HTRF): 45 nM
COc1cc(N2CCN(C)CC2)ccc1Nc1ncc2c(n1)N(C)c1ccccc1C(=O)N2  IC50 (Tyrosine-protein kinase FRK (FRK, Homo sapiens, UniProt P42685); kinase activity, inhibitor; off-target): 264 nM
